Measurements pooled from the literature.
Protocols differ between the studies behind these lines. ± gives the spread as reported.

For CC[C@H](C)[C@H](NC(=O)[C@@H]1CCCN1C(=O)[C@@H](NC(=O)[C@H](C)N)C(C)C)C(=O)N[C@@H](C)C(=O)N[C@@H](CCC(N)=O)C(=O)N[C@@H](CCCCN)C(=O)N[C@@H](CO)C(=O)N[C@@H](CCC(=O)O)C(=O)N1CCC[C@H]1C(=O)N[C@@H](Cc1ccccc1)C(=O)N[C@@H](CCCCN)C(=O)N[C@@H](CCCCN)C(=O)N[C@@H](CCCCN)C(=O)N[C@@H](CCCCNC(=O)CCCCCNC(=S)Nc1ccc2c(c1)C(=O)OC21c2ccc(O)cc2Oc2cc(O)ccc21)C(N)=O, Kd read “no binding” (E3 ubiquitin-protein ligase XIAP, BIR1 domain (XIAP, Homo sapiens, UniProt P98170); fluorescence polarization; 30 min, pH 7.5, together with: 20 nM FITC-labeled peptide).
O=C1NC2(CC2)COc2ncc(F)cc2[C@H]2COCCN2c2ccn3ncc1c3n2 — result for “organ-to-body weight ratio”: 0.156 ± 0.026% (Sprague-Dawley rat, male, thymus; oral, 5 mg/kg/day, 4 weeks, end of treatment).
With CCCC[C@@H]1NC(=O)[C@H](Cc2ccc(F)cc2)NC(=O)[C@H](CCC(N)=O)NC(=O)[C@H](Cc2ccc(O)cc2)NC(=O)[C@H](Cc2c[nH]c3ccccc23)NC(=O)[C@@H](C)NC(=O)[C@H](CCC(=O)N[C@@H](CCCCN)C(N)=O)NC(=O)[C@@H](C)NC(=O)[C@@H](C)NC(=O)[C@@H](C)NC1=O the Kd was 1300 nM (Lysine--tRNA ligase (KARS1, Homo sapiens, UniProt Q15046); binding).
CC[C@H](C)[C@H](NC(=O)c1ccc2c(c1)C(=O)OC21c2ccc(N(C)C)cc2Oc2cc(N(C)C)ccc21)C(=O)N[C@H](C(=O)N[C@@H](C)C(=O)N[C@@H](CC(C)C)C(=O)N[C@H](C(=O)N[C@@H](CO)C(=O)N[C@@H](CC(N)=O)C(=O)N[C@@H](CCC(N)=O)C(=O)N[C@@H](CCC(=O)O)C(=O)N[C@@H](Cc1ccc(OP(=O)(O)O)cc1)C(=O)N[C@@H](CC(C)C)C(=O)N[C@@H](CC(=O)O)C(=O)N[C@@H](CC(C)C)C(=O)N[C@@H](CO)C(=O)N[C@@H](CCSC)C(=O)N1CCC[C@H]1C(=O)N[C@@H](CC(C)C)C(=O)N[C@@H](CC(=O)O)C(=O)O)[C@@H](C)O)C(C)C gave a Kd of 1830 nM (1-phosphatidylinositol 4,5-bisphosphate phosphodiesterase gamma-1, SH2 domains (PLCG1, Homo sapiens, UniProt P19174); binding).
For CC[C@H](C)[C@@H]1NC(=O)[C@H](CC(=O)O)NC(=O)[C@@H](NC(=O)[C@H](CCC(=O)O)NC(=O)[C@H](CC(N)=O)NC(=O)CNC(=O)CN)CSSC[C@@H](C(=O)N[C@@H](Cc2ccc(F)cc2)C(=O)N[C@@H](CCC(=O)O)C(=O)NCC(=O)N[C@@H](C)C(=O)O)NC(=O)[C@H](CCC(=O)O)NC(=O)[C@H](Cc2c[nH]c3ccccc23)NC(=O)[C@H](CCC(=O)O)NC(=O)[C@H](Cc2c[nH]c3ccccc23)NC(=O)[C@H](CCSC)NC(=O)[C@H](CCCNC(=N)N)NC(=O)[C@H](C)NC1=O, the Kd was 152000 nM (VEGFA (Homo sapiens, UniProt P15692); binding).
With CCCc1cc2cc(-n3nc(C(F)(F)F)c4c3CC(C)(C)CC4=O)cc(N3CCC(O)CC3)c2c(=O)[nH]1 the Kd was 587 nM (HSP90AB1 (Homo sapiens, UniProt P08238); fluorescence polarization; 24 h, 4 °C, together with: FITC-geldanamycin tracer).
CSCC[C@H](NC=O)C(=O)N[C@@H](CCCNC(=N)N)C(=O)N[C@H](C(=O)NCC(=O)N[C@@H](CC(N)=O)C(=O)N[C@@H](C)C(=O)N[C@@H](CC(N)=O)C(=O)NCC(=O)NCC(=O)N[C@@H](CCCCNC(=S)Nc1ccc2c(c1)C(=O)OC21c2ccc(O)cc2Oc2cc(O)ccc21)C(=O)O)[C@@H](C)O has a Kd of 6380 ± 390 nM (Uncharacterized protein YejA (yejA, Escherichia coli, UniProt P33913, Y155F); binding, fluorescence polarisation; YejA variant Y137F).
For CC1(C)C(NC(=O)C(=NOC2(C(=O)O)CC2)c2csc(N)n2)C(=O)N1OS(=O)(=O)O (centres unmarked), the Kd was 150 nM (beta-lactamase CMY-6 (Klebsiella pneumoniae); binding, surface plasmon resonance).
CC(C)[C@H](NC(=O)[C@H](Cc1ccccc1)NC(=O)[C@H](CC(=O)O)NC(=O)[C@H](CC(=O)O)NC(=O)[C@H](CCC(N)=O)NC(=O)[C@H](CC(=O)O)NC(=O)[C@H](CCC(=O)O)NC(=O)[C@H](CCC(=O)O)NC(=O)[C@H](CCC(N)=O)NC(=O)[C@H](CC(=O)O)NC(=O)[C@H](C)NC(=O)[C@H](C)NC(=O)[C@@H](N)CCC(=O)O)C(=O)N[C@@H](Cc1ccc(O)cc1)C(=O)N1CCC[C@H]1C(=O)NCC(=O)N[C@@H](C)C(=O)N[C@@H](CC(=O)O)C(=O)O gave a Kd of 12100 nM (RNA-binding protein RRM4 (RRM4, Mycosarcoma maydis, UniProt A0A0D1DWZ5); isothermal titration calorimetry; pH 8.0, 25 °C).
With O=C(N[C@@H]1c2ccccc2C[C@H]1N1CCCC1)c1ccc(-c2ccnc3[nH]ccc23)nc1 the Kd was 470 nM (MAP2K3 (Homo sapiens, UniProt P46734); binding, competition with immobilised ligand).
With CC(C)C[C@H](NC(=O)[C@@H](N)Cc1ccccc1)C(=O)N[C@@H](C)C(=O)N[C@H]1CSCc2cccc(n2)CSC[C@@H](C(=O)N[C@H](C(=O)NCC(=O)N[C@@H](CO)C(=O)N[C@@H](Cc2c[nH]c3ccccc23)C(=O)N[C@@H](CCCCNC(=O)CN2CCN(CC(=O)O)CCN(CC(=O)O)CCN(CC(=O)O)CC2)C(N)=O)[C@@H](C)O)NC(=O)[C@H](Cc2c[nH]cn2)NC(=O)[C@H]([C@@H](C)O)NC(=O)[C@H](CCC(=O)O)NC(=O)[C@@H]2CCCN2C1=O the Kd was 116 nM (EPHA2 (Homo sapiens, UniProt P29317); binding, SPR).
